Published values collected from several papers.
“And” joins repeats or separate records; there may be more than shown. ± marks the error that the study gave. Converted amounts (≈) assume the structure as drawn.

O=C(/C=C/c1ccc(O)c(O)c1/C=C/c1ccc(O)c(O)c1)O[C@H](Cc1ccc(O)c(O)c1)C(=O)O  CPE inhibition (SARS-CoV-2; viral replication; Vero E6; 1.562 µM; reference: mean of replicates): 0%
CCc1nccn1Cc1nc(-c2cc(C)c(OC)cc2C)oc1C  remaining activity (Lassa mammarenavirus; viral replication; Huh-7; 10 µM, 72 h): 1%
Nc1ncnc2c([C@@H]3N[C@H](CO)[C@@H](O)[C@H]3O)c[nH]c12  inhibition (Lassa mammarenavirus; viral replication; HeLa, Josiah; 0.8 µM): 0%
COC(=O)c1cc2n(n1)CCN(Cc1cc3ccc(C)cc3nc1O)C2  remaining activity (Lassa mammarenavirus; viral replication; Huh-7; 10 µM, 72 h): 52%
Cc1ccc(-c2cccc(CN3CCCC(c4nc5ccc(C)cc5c(=O)[nH]4)C3)c2)c(C)c1 (centres unmarked)  efficacy (SARS-CoV-2; cytopathic effect; USA_WA1/2020; round 2, 5-point): 111%
CNC(=O)[C@@H](NC(=O)[C@H](CC(C)C)[C@H](O)C(=O)NO)C(C)(C)C  viability difference (Daboia russelii; C2C12; 100 µM, together with: Daboia russelii venom GA; reference: venom alone): -23.3%
CC(C)(C)c1ccc(C(=O)Nc2ccc(N3CCCN(C(=O)c4cnccn4)CC3)nc2)cc1  IC90 (Mycobacterium tuberculosis; bacterial growth; H37Ra-lux; 168 h): > 64 µM
CN(C(=O)CCC1CCCCC1)c1ncc(Cc2ccccc2)s1  MIC (Histoplasma capsulatum; microbial growth): > 20 µM
COc1ccc2c(c1)c(CC(=O)O)c(C)n2C(=O)c1ccc(Cl)cc1  EC50 (SARS-CoV-2; viral replication, GFP plate reader screen; cell-based): > 100 µM
COc1ccc([C@@H](O)c2cc(-c3ncnc4cc(N5CCOCC5)ccc34)c(F)cc2Cl)nn1  injury, poisoning, procedural complications incidence (patients, advanced solid tumours; oral, 200 mg once daily, 10 dosing days, treatment-emergent, together with: avelumab, radiotherapy): 1%
CC1CCCCN1CCCNC(=O)c1cc(Sc2cccc(Cl)c2)nc2ccccc12 (centres unmarked)  maximal response (SARS-CoV-2; cytopathic effect, cell-based CPE; USA_WA1/2020; round 2, 5-point dilution): 98%
CCOP(=S)(OCC)Oc1nc(Cl)c(Cl)cc1Cl  Ki (rat CYP3A; midazolam 4-hydroxylation, non-competitive inhibitor; rat Sprague-Dawley, liver microsomes; 10 min, pH 7.4, together with: midazolam 15 to 214 µM): 77.7 ± 17.2 µM
CCCN(Cc1ccc(SC)cc1)C(=O)c1cnc2ccccn2c1=O  remaining activity (Lassa mammarenavirus; viral replication; Huh-7; 10 µM, 72 h): 43%
O=C1c2c(O)cccc2Cc2cccc(O)c21  EC50 (SARS-CoV-2; viral replication, high-content imaging screen; cell-based): > 100 µM
CCn1c2ccccc2c2cc(CN3CCN(Cc4cccc(Cl)c4)CC3)ccc21  maximum response (SARS-CoV-2; cytopathic effect; USA_WA1/2020; round 2, 5-point): 97%
COc1ccc(C[C@@H]2c3cc(Oc4cc(C[C@@H]5c6cc(O)c(OC)cc6CCN5C)ccc4O)c(OC)cc3CCN2C)cc1  inhibition (Severe acute respiratory syndrome coronavirus 2; cytopathic effect, inhibitor; Vero C1008; 12.5 µM): 0%
CC#CCN1CC=C(c2cnn(CCCC)c2)CC1  remaining activity (Lassa mammarenavirus; viral replication; Huh-7; 10 µM, 72 h): 63%
NC(=O)c1ncn([C@@H]2O[C@H](CO)[C@@H](O)[C@H]2O)n1  EC50 (influenza A virus; viral replication; MA104, H7N9): 3.7 µM
CCS(=O)(=O)NCC1CCOC2(CCN(C(=O)C3(c4ccccc4)CCCC3)CC2)C1 (centres unmarked)  EC50 (Venezuelan equine encephalitis virus; viral replication): 12.6 µM
Nc1ncnc2c1ncn2[C@@H]1O[C@@H]2COP(=O)(O)O[C@H]3[C@@H](O)[C@H](n4cnc5c(=O)[nH]cnc54)O[C@@H]3COP(=O)(O)O[C@H]2[C@H]1O  fold enrichment (Chikungunya virus; upregulated Reactome pathway, RNA sequencing, measured: Chromatin organization (R-HSA-4839726); HFF-1; reference: CHIKV-infected untreated): 2.41
Cn1cnc(Cn2c(=O)[nH]/c(=N\c3cc4cn(C)nc4cc3Cl)n(Cc3cc(F)c(F)cc3F)c2=O)n1  terminal elimination rate constant (human, normal renal function; oral, 375 mg, single dose, geometric mean): 4.39e-06 s⁻¹
CC(C)C(=O)Nc1ncc(Cc2ccc3ccccc3c2)s1  MIC (Histoplasma capsulatum; microbial growth): 20 µM (≈ 6.21 µg/mL)
Cc1ncc([N+](=O)[O-])n1CCO  MIC90 (Clostridium perfringens): 1 µg/mL (≈ 5.84 µM)
CN(CCOc1ccccc1)c1ncnc2[nH]ccc12  remaining activity (Lassa mammarenavirus; viral replication; Huh-7; 10 µM, 72 h): 39%
CCN(CC)CCNC(=O)c1ccc(NS(C)(=O)=O)cc1  EC50 (SARS-CoV-2; viral replication, high-content imaging screen; cell-based): > 100 µM
CC1CCCN(CCCNC(=O)c2cc(Sc3ccc(F)cc3)nc3ccccc23)C1 (centres unmarked)  maximum response (SARS-CoV-2; cytopathic effect; USA_WA1/2020; first round 5-point): 97.6%
CN1CCN(C(=O)c2cc3cc(Cl)ccc3[nH]2)CC1  selectivity index (Marburg virus; pseudovirus entry; A549; reference: CC50 over IC50): 6.9
COP(=S)(OC)Oc1ccc([N+](=O)[O-])c(C)c1  Ki (rat CYP3A; midazolam 4-hydroxylation, non-competitive inhibitor; rat Sprague-Dawley, liver microsomes; 10 min, pH 7.4, together with: midazolam 15 to 214 µM): 226 ± 43.2 µM
CCc1c(C(=O)C(N)=O)c2c(OCC(=O)O)cccc2n1Cc1ccccc1  time of death (Daboia russelii; mouse; intravenous, 120 µg, up to 24 h, given 0 min after venom, together with: central venom intraperitoneal): > 24 h and 22.4 h
COc1ccc2cc(C3CN(C(=O)c4ccc[nH]4)CCO3)ccc2c1 (centres unmarked)  remaining activity (Lassa mammarenavirus; viral replication; Huh-7; 10 µM, 72 h): 42%
CCCC(C(=O)OCCN(CC)CC)(c1ccccc1)c1ccccc1  EC50 (SARS-CoV-2; viral replication, GFP plate reader screen; cell-based): 5.13 µM
O=C(NCc1cccs1)C1CCCN(Cc2cccc(-c3ccc(F)cc3F)c2)C1 (centres unmarked)  maximum response (SARS-CoV-2; cytopathic effect; USA_WA1/2020; round 1, 5-point): 72.7%
O=C(Nc1ccc(N2CCCN(C(=O)c3cnccn3)CC2)nc1)c1cccc(Br)c1  IC90 (Mycobacterium tuberculosis; bacterial growth; H37Ra-lux; 168 h): > 64 µM
OC(COc1cccc(OCC(O)CN2CCCCC2)c1)CN1CCCCC1 (centres unmarked)  plaque formation (SARS-CoV; concentration not given, compound absent at entry stage): no effect
O=C(NCCc1ccncc1)C1CN(C(=O)c2cccn2Cc2ccc(Cl)cc2)C1  potency (western equine encephalitis virus; viral replication, replicon): decreased
CN1CCN(C(c2ccccc2)c2ccc(Cl)cc2)CC1 (centres unmarked)  IC50 (Zaire ebolavirus; HFF-1, Kikwit; 48 h): 3.2 µM
Cn1cnc(Cn2c(=O)[nH]/c(=N\c3cc4cn(C)nc4cc3Cl)n(Cc3cc(F)c(F)cc3F)c2=O)n1  Cmax (healthy Japanese adults, plasma; oral, 125 mg, day 5, fasted, with midazolam): 21900 ng/mL
O=C1c2c(O)c(=O)ccn2N([C@@H]2c3ccccc3SCc3c2ccc(F)c3F)[C@@H]2COCCN12  EC50 (Influenza A virus; viral replication, plaque reduction; A(H7N1); mean): 0.00023 ± 2e-05 µM
Nc1ccn([C@@H]2O[C@H](CO)[C@@H](O)[C@H]2F)c(=O)n1  viral infection (Lassa virus; viral replication; concentration not given, compound present throughout time course): inhibited
COc1cc2c(cc1OCC1CC1)NC(=O)C21CCN(c2cc(NC3CC3)ncn2)CC1  efficacy (SARS-CoV-2; cytopathic effect; USA_WA1/2020; round 1, 5-point): 71.9%
CC(C)C[C@@H]1NC(=O)CN(C(=O)c2cccn(C)c2=O)CCN(C)C(=O)[C@H](C)NC(=O)CN(C)C(=O)[C@@H](Cc2c[nH]c3ccccc23)NC(=O)c2csc1n2  Emax (Lassa mammarenavirus; viral replication; Huh-7; concentration not given): 15%
Cn1c(=O)ccc2ccc(F)c(CCNC[C@H]3CN(c4cnc5c(n4)NC(=O)CO5)C(=O)O3)c21  MIC50 (Yersinia pestis; microbial growth): < 0.015 µg/mL
buprenorphine  maximal inhibition (Ebola virus; virus-like particle entry; HeLa; concentration not given): 79%
COc1ccc2c(c1)N(C[C@H](C)CN(C)C)c1ccccc1S2  EC50 (SARS-CoV-2; viral replication, GFP plate reader screen; BetaCov/Belgium/GHB-03021/2020; cell-based): 11.8 µM
CCCCNC(=O)C1CCCN(Cc2nc(-c3ccc(Cl)cc3)oc2C)C1 (centres unmarked)  AC50 (SARS-CoV-2; cytopathic effect, cell-based CPE; USA_WA1/2020; round 2, 5-point dilution): 12.6 µM
CN1CCN(CCCN2c3ccccc3Sc3ccc(S(=O)(=O)N(C)C)cc32)CC1  EC50 (SARS-CoV-2; viral replication, high-content imaging screen; cell-based): > 100 µM
CNC(=NCCSCc1csc(N=C(N)N)n1)NC#N  IC50 (Marburg virus; HIV/MARV pseudovirion entry; A549; 48 h): > 100 µM
CC(C)CN(C[C@@H](O)[C@H](Cc1ccccc1)NC(=O)O[C@H]1CO[C@H]2OCC[C@H]21)S(=O)(=O)c1ccc2nc(NC3CCN(C4CCCC4)CC3)sc2c1  EC50 (SARS-CoV-2; viral replication, high-content imaging screen; cell-based): > 100 µM
CC[C@H](C)[C@H](NC(=O)[C@H](CC(C)C)NC(=O)[C@H](Cc1c[nH]c2ccccc12)NC(=O)[C@H](CCC(N)=O)NC(=O)[C@@H](NC(=O)[C@H](Cc1ccccc1)NC(=O)[C@H](C)NC(=O)[C@H](CCCCNC(=O)COCCOCCNC(=O)COCCOCCNC(=O)CC[C@H](NC(=O)CCCCCCCCCCCCCCCCCCC(=O)O)C(=O)O)NC(=O)[C@H](CCC(N)=O)NC(=O)[C@H](C)NC(=O)[C@@H](NC(=O)[C@H](CCCCN)NC(=O)[C@H](CC(=O)O)NC(=O)[C@H](CC(C)C)NC(=O)C(C)(C)NC(=O)[C@@H](NC(=O)[C@H](CO)NC(=O)[C@H](Cc1ccc(O)cc1)NC(=O)[C@H](CC(=O)O)NC(=O)[C@H](CO)NC(=O)[C@@H](NC(=O)[C@H](Cc1ccccc1)NC(=O)[C@@H](NC(=O)CNC(=O)[C@H](CCC(=O)O)NC(=O)C(C)(C)NC(=O)[C@@H](N)Cc1ccc(O)cc1)[C@@H](C)O)[C@@H](C)O)[C@@H](C)CC)[C@@H](C)CC)C(C)C)C(=O)N[C@@H](C)C(=O)NCC(=O)NCC(=O)N1CCC[C@H]1C(=O)N[C@@H](CO)C(=O)N[C@@H](CO)C(=O)NCC(=O)N[C@@H](C)C(=O)N1CCC[C@H]1C(=O)N1CCC[C@H]1C(=O)N1CCC[C@H]1C(=O)N[C@@H](CO)C(N)=O  systolic blood pressure change (healthy subjects, single ascending dose; 5.0 mg, day 29; reference: baseline): -0.83 mmHg
COc1ccc2cc1Oc1ccc(cc1)C[C@H]1c3c(cc4c(c3Oc3cc5c(cc3OC)CCN(C)[C@@H]5C2)OCO4)CCN1C  intracellular viral copies (African swine fever virus; concentration not given): decreased
CCN(CCO)CCCC(C)Nc1ccnc2cc(Cl)ccc12 (centres unmarked)  IC50 (SARS-CoV-2 Delta; viral replication; A549-ACE2; 48 h): 20.4 µM
CN1CCC(c2cc3cc(Cl)ccc3o2)CC1  EC50 (SARS-CoV-2; viral replication, high-content imaging screen; BetaCov/Belgium/GHB-03021/2020; cell-based): > 100 µM
Cc1ccc2nc(Cl)c3cc(C(=O)NCCCN4CCC(C)CC4)sc3c2c1  maximum response (SARS-CoV-2; cytopathic effect; USA_WA1/2020; retest, 8-point, duplicates): 88.7%

Repeated from above:
O=C(/C=C/c1ccc(O)c(O)c1/C=C/c1ccc(O)c(O)c1)O[C@H](Cc1ccc(O)c(O)c1)C(=O)O  CPE inhibition (SARS-CoV-2; viral replication; Vero E6; 1.562 µM; reference: mean of replicates): 0%
CN(CCOc1ccccc1)c1ncnc2[nH]ccc12  remaining activity (Lassa mammarenavirus; viral replication; Huh-7; 10 µM, 72 h): 39%
CCN(CC)CCNC(=O)c1ccc(NS(C)(=O)=O)cc1  EC50 (SARS-CoV-2; viral replication, high-content imaging screen; cell-based): > 100 µM
Cc1ccc(-c2cccc(CN3CCCC(c4nc5ccc(C)cc5c(=O)[nH]4)C3)c2)c(C)c1 (centres unmarked)  efficacy (SARS-CoV-2; cytopathic effect; USA_WA1/2020; round 2, 5-point): 111%
COP(=S)(OC)Oc1ccc([N+](=O)[O-])c(C)c1  Ki (rat CYP3A; midazolam 4-hydroxylation, non-competitive inhibitor; rat Sprague-Dawley, liver microsomes; 10 min, pH 7.4, together with: midazolam 15 to 214 µM): 226 ± 43.2 µM
CN1CCN(C(c2ccccc2)c2ccc(Cl)cc2)CC1 (centres unmarked)  IC50 (Zaire ebolavirus; HFF-1, Kikwit; 48 h): 3.2 µM
